Results gathered from unrelated publications.
A part holds a random share of what one study measured. Several values in a cell are separate wells, animals, samples, runs or records.
Sequence of UniProt O14936 (whole entry, looked up): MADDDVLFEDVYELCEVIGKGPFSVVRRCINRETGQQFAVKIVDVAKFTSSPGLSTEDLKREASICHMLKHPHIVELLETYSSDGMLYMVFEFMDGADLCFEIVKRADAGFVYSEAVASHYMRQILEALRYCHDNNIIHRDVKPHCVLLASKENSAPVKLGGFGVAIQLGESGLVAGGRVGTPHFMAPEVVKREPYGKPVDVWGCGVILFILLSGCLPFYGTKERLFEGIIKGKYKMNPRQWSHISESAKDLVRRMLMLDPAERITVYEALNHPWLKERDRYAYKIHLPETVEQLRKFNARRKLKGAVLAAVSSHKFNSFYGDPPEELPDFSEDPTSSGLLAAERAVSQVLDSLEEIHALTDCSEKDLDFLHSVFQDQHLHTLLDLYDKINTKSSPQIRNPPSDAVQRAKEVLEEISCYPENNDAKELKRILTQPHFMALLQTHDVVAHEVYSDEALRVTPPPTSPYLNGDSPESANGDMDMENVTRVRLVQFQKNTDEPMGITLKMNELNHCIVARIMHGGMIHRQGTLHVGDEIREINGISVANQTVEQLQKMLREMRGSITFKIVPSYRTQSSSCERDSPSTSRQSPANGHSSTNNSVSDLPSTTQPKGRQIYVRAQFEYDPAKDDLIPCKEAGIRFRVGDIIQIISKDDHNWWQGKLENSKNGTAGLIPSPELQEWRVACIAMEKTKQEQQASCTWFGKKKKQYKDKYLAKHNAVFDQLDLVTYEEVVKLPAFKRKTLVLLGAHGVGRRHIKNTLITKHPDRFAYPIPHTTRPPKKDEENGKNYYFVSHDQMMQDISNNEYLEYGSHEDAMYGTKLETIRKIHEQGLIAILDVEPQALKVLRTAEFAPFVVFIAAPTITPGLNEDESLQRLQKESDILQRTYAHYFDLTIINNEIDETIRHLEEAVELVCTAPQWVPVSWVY
Sequence of UniProt Q9HBH9 (whole entry, looked up): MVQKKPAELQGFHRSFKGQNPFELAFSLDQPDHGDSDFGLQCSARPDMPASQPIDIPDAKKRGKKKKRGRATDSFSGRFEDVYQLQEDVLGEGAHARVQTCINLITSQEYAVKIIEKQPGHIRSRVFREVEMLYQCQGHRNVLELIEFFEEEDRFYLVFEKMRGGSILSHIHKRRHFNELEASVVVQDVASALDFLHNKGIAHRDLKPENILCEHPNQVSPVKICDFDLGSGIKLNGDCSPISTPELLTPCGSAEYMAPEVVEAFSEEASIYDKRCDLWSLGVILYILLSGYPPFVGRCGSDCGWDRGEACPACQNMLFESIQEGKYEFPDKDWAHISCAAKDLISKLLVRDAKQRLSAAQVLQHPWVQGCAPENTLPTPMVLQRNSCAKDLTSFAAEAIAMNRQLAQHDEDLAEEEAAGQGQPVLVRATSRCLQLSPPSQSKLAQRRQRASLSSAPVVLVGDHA
Sequence of UniProt Q9HAZ1 (whole entry, looked up): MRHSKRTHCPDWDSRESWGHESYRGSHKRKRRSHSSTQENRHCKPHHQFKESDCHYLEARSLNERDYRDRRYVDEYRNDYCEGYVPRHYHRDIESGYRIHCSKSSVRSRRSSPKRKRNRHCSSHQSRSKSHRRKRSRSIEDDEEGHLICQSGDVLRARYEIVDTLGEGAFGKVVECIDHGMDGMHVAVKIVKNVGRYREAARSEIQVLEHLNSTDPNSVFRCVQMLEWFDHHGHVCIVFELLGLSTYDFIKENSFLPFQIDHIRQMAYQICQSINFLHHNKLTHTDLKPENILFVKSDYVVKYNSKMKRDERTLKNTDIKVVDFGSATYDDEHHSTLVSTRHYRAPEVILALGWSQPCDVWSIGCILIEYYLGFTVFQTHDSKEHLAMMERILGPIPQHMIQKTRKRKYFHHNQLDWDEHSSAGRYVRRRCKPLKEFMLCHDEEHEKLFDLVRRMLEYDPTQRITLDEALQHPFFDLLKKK
Sequence of UniProt Q9UPZ9 (whole entry, looked up): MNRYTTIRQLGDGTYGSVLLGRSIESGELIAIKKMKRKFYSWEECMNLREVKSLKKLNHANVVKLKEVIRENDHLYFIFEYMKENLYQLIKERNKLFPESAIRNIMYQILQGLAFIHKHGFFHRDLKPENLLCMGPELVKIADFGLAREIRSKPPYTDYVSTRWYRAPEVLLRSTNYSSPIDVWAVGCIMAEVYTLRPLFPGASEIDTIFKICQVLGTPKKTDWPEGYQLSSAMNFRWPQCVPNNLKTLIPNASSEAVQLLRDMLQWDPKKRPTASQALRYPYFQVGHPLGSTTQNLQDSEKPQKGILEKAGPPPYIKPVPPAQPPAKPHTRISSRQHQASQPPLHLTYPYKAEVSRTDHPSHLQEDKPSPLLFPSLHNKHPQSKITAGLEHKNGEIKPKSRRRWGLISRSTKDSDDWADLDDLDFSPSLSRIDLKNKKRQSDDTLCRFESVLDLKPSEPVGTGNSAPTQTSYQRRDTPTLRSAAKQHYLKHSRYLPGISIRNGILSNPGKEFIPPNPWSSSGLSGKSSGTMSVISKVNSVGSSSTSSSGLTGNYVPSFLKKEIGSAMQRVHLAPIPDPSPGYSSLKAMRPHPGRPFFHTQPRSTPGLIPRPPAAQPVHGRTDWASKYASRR
Sequence of UniProt Q9UL54 (whole entry, looked up): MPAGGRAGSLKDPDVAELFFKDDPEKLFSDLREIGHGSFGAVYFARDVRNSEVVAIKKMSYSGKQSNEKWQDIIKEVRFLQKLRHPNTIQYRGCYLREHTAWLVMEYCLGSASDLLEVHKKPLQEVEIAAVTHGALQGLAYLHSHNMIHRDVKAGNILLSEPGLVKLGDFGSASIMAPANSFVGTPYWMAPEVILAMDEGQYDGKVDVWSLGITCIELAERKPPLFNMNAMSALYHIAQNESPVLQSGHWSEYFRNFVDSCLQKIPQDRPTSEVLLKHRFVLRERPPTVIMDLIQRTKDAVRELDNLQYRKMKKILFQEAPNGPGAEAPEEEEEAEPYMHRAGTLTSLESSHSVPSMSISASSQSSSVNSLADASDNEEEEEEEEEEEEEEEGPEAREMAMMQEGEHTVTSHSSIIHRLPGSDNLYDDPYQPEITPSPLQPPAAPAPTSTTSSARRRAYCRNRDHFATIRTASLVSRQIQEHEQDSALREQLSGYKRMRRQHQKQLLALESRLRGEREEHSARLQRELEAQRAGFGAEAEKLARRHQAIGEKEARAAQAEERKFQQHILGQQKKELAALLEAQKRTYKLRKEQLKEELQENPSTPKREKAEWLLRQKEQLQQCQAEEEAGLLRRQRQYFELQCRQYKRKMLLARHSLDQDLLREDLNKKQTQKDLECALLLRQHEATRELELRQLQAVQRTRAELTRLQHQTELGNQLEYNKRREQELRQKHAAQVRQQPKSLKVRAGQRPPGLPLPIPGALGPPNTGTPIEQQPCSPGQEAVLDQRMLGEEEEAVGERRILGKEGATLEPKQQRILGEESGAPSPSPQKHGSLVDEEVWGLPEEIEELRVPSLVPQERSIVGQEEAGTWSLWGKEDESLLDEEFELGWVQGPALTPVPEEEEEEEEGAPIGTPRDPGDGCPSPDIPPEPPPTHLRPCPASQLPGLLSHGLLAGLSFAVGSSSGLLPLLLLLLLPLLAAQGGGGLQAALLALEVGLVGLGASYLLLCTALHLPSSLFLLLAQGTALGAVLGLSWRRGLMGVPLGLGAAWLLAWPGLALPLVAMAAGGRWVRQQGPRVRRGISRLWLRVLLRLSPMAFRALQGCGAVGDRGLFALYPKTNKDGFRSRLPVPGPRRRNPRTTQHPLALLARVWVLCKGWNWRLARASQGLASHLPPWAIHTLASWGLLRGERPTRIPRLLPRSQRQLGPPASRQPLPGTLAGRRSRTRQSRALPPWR
Sequence of UniProt Q00526 (whole entry, looked up): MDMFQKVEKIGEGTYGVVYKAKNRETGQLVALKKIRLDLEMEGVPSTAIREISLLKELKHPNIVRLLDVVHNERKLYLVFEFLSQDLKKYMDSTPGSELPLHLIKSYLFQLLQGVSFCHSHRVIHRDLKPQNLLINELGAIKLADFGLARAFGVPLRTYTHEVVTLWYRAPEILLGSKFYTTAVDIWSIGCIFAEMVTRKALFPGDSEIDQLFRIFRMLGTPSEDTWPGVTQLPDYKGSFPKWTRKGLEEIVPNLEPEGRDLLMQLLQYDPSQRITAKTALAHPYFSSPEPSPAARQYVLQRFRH

Study 1
SMILES: CCS(=O)(=O)c1cc2cc(C[C@@](O)(CC(C)(C)c3ccc(F)cc3C(N)=O)C(F)(F)F)[nH]c2cn1
Observed: cell-free assay
Method: competition with immobilised ligand
Concentration: 1 µM
Endpoint: remaining binding
Ephrin type-B receptor 1 (EPHB1, Homo sapiens, UniProt P54762): 92%
Dual specificity protein kinase CLK4 (CLK4, Homo sapiens, UniProt Q9HAZ1): 100%
Serine/threonine-protein kinase VRK2 (VRK2, Homo sapiens, UniProt Q86Y07): 80%
Tyrosine-protein kinase ZAP-70 (ZAP70, Homo sapiens, UniProt P43403): 72%
Receptor-type tyrosine-protein kinase FLT3 (FLT3, Homo sapiens, UniProt P36888, ITD): 78%
Serine/threonine-protein kinase TBK1 (TBK1, Homo sapiens, UniProt Q9UHD2): 87%
Peripheral plasma membrane protein CASK (CASK, Homo sapiens, UniProt O14936): 100%
Serine/threonine-protein kinase ICK (CILK1, Homo sapiens, UniProt Q9UPZ9): 97%
Ribosomal protein S6 kinase alpha-2, N-terminal kinase domain (RPS6KA2, Homo sapiens, UniProt Q15349): 80%
Tyrosine-protein kinase HCK (HCK, Homo sapiens, UniProt P08631): 100%
Phosphatidylinositol 4,5-bisphosphate 3-kinase catalytic subunit alpha isoform (PIK3CA, Homo sapiens, UniProt P42336, E545K): 79%
Hepatocyte growth factor receptor (MET, Homo sapiens, UniProt P08581, M1250T): 90%
Epidermal growth factor receptor (EGFR, Homo sapiens, UniProt P00533, L858R/T790M): 83%
Cyclin-dependent kinase 3 (CDK3, Homo sapiens, UniProt Q00526): 73%
MAP kinase-interacting serine/threonine-protein kinase 2 (MKNK2, Homo sapiens, UniProt Q9HBH9): 87%
TGF-beta receptor type-1 (TGFBR1, Homo sapiens, UniProt P36897): 100%
SRSF protein kinase 1 (SRPK1, Homo sapiens, UniProt Q96SB4): 90%
Receptor tyrosine-protein kinase erbB-4 (ERBB4, Homo sapiens, UniProt Q15303): 100%
Phosphatidylinositol 4,5-bisphosphate 3-kinase catalytic subunit gamma isoform (PIK3CG, Homo sapiens, UniProt P48736): 78%
Serine/threonine-protein kinase Nek9 (NEK9, Homo sapiens, UniProt Q8TD19): 83%
Serine/threonine-protein kinase SIK2 (SIK2, Homo sapiens, UniProt Q9H0K1): 100%
Serine/threonine-protein kinase TAO2 (TAOK2, Homo sapiens, UniProt Q9UL54): 76%
Serine/threonine-protein kinase RIO1 (RIOK1, Homo sapiens, UniProt Q9BRS2): 50%
Tyrosine-protein kinase ABL1, phosphorylated (ABL1, Homo sapiens, UniProt P00519, Y253F): 72%

Study 2
Cell line: HaCaT
Concentration: 100 µM
Time: 18 h
Endpoint: viability
CN[C@@H]1[C@@H](O[C@H]2O[C@H](CO)[C@@H](N)[C@H](O)[C@H]2O)O[C@H]2C[C@@H](N)[C@@H](O[C@H]3[C@H](O)[C@@H](O)[C@H](N)C[C@@H]3N)O[C@@H]2[C@@H]1O: 110%
Nc1nnc(-c2cccc(Cl)c2Cl)c(N)n1: 110%
CC(C(O)c1ccc(O)cc1)N1CCC(Cc2ccccc2)CC1 (stereo not shown): 80.2%
CC1=C(C(=O)OC(C)C)C(c2cccc([N+](=O)[O-])c2)C(C(=O)OC2CN(C(c3ccccc3)c3ccccc3)C2)=C(N)N1 (stereo not shown): 20%
CCOc1ccc2ccccc2c1C(=O)N[C@@H]1C(=O)N2[C@@H]1SC(C)(C)[C@@H]2C(=O)O: 100%
CCOC(=O)C1=C[C@]2(CC)CCCN3CCc4c(n1c1ccccc41)[C@@H]32: 45.3%
CC12CC3CC(C)(C1)CC(N)(C3)C2: 100%
C[C@H](CCC(=O)NCCS(=O)(=O)O)[C@H]1CC[C@H]2[C@@H]3[C@@H](O)C[C@@H]4C[C@H](O)CC[C@]4(C)[C@H]3CC[C@]12C: 112%
C#C[C@]1(O)CC[C@H]2[C@@H]3CCC4=CC(=O)CC[C@@H]4[C@H]3C(=C)C[C@@]21CC: 91.1%
O=C1[C@@H]2[C@H]3CC[C@H](C3)[C@@H]2C(=O)N1C[C@@H]1CCCC[C@H]1CN1CCN(c2nsc3ccccc23)CC1: 90.2%
O=C1OC2(c3ccc(O)cc3Oc3cc(O)ccc32)c2ccccc21: 189%
CO[C@H]1/C=C/O[C@@]2(C)Oc3c(C)c(O)c4c(O)c(c(/C=N/N5CCN(C6CCCC6)CC5)c(O)c4c3C2=O)NC(=O)/C(C)=C\C=C\[C@H](C)[C@H](O)[C@@H](C)[C@@H](O)[C@@H](C)[C@H](OC(C)=O)[C@@H]1C: 86.1%

Study 3
Target: Calcium/calmodulin-dependent protein kinase type II subunit alpha (CAMK2A, Homo sapiens, UniProt Q9UQM7)
Sequence of UniProt Q9UQM7 (whole entry, looked up): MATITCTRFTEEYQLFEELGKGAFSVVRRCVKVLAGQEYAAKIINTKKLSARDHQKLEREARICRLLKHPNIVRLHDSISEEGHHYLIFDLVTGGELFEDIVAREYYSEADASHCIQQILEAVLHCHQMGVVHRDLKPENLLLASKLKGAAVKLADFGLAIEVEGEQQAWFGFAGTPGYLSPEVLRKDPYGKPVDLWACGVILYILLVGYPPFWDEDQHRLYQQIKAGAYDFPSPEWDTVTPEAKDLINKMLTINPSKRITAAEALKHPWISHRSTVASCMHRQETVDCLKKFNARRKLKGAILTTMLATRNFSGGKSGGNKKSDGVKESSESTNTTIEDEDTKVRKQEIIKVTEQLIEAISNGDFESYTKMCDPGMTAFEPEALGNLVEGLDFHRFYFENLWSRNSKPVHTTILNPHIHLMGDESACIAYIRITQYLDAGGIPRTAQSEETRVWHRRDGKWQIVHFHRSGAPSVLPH
Observed: enzyme activity
Action: inhibitor
Concentration: 10 µM
Endpoint: inhibition
C/C=C/C=C/C(=O)O: -0.07% and -0.08%
CC1=CC(=O)CC(C)(C)C1(O)/C=C/C(C)=C\C(=O)O (racemic): -12%
CC(C)=CCC[C@](C)(O[C@@H]1O[C@H](CO)[C@@H](O)[C@H](O)[C@H]1O)[C@H]1CC[C@]2(C)[C@@H]1[C@H](O)C[C@@H]1[C@@]3(C)CC[C@H](O)C(C)(C)[C@@H]3[C@@H](O[C@@H]3O[C@H](CO)[C@@H](O)[C@H](O)[C@H]3O[C@@H]3OC[C@@H](O)[C@H](O)[C@H]3O)C[C@]12C: 51%
Cc1nc2ccc(CN(C)c3ccc(C(=O)N[C@@H](CCC(=O)O)C(=O)O)s3)cc2c(=O)[nH]1: -13%
CC(COc1ccccc1)N(CCCl)Cc1ccccc1 (stereo not shown): -6%
Oc1ccc(OC2CCCCO2)cc1 (stereo not shown): -41%
OCCc1ccc(O)cc1: 4%
NC(=O)N1CCC(CC(=O)N2CCC([C@H]3c4ncc(Br)cc4CCc4cc(Cl)cc(Br)c43)CC2)CC1: 11%
CCN(CC)C(=O)/C(C#N)=C/c1cc(O)c(O)c([N+](=O)[O-])c1: -2%
C[C@H](CC[C@@]1(O)O[C@H]2C[C@H]3[C@@H]4CC[C@@H]5C[C@@H](O[C@@H]6O[C@H](CO)[C@@H](O)[C@H](O)[C@H]6O[C@@H]6O[C@H](CO)[C@@H](O)[C@H](O)[C@H]6O)CC[C@]5(C)[C@H]4CC[C@]3(C)[C@H]2[C@@H]1C)CO[C@@H]1O[C@H](CO)[C@@H](O)[C@H](O)[C@H]1O: -9%
C[C@@H]1N=C(N)NC(N(C)C)=N1: -7%
O=C(O)Cc1cccnc1: 16%

Study 4
Target: Mitogen-activated protein kinase 11 (MAPK11, Homo sapiens, UniProt Q15759)
Sequence of UniProt Q15759 (whole entry, looked up): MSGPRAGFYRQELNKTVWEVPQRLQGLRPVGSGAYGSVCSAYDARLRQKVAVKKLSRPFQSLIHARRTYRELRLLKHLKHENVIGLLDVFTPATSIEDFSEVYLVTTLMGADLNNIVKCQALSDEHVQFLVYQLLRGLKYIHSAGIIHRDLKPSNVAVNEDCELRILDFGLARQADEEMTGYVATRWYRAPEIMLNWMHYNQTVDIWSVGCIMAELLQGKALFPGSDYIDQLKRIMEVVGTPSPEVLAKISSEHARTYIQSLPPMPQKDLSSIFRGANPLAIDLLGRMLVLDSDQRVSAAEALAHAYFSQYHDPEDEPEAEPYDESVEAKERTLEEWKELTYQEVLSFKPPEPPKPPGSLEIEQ
Observed: enzyme activity
Action: inhibitor
Concentration: 0.5 µM
Reference: control
Endpoint: remaining activity
O=C1c2ccccc2-c2n[nH]c3cccc1c23: 92.8%
O=C1C(Cl)=C(N2C(=O)CCC2=O)C(=O)c2ccccc21: 105%
O=C(Nc1cccc(Nc2nccc(Nc3cccc(C(F)(F)F)c3)n2)c1)C1CC1: 103%
c1ccc(-c2[nH]ncc2-c2ccnc3ccccc23)nc1: 106%
Cc1nc2cc3nc(-c4cccs4)cnc3cc2n1C: 101%
COc1cc2ncnc(Nc3cccc(Cl)c3)c2cc1OC: 97.5%
c1ccc(-c2cnc(Nc3ccc(OCCN4CCCC4)cc3)s2)cc1: 94.7%
CCN(CC)CCNC(=O)c1c(C)[nH]c(/C=C2\C(=O)Nc3ccc(F)cc32)c1C: 99.9%
O=c1cc(-c2cccc3c2Sc2ccccc2S3)oc(N2CCOCC2)c1: 102%
Cc1cc2ncc(-c3ccccc3)nc2cc1C: 96.8%
CCOc1nc(NC(=O)Cc2cc(OC)ccc2OC)cc(N)c1C#N: 106%
C[C@@H]1CCN(C(=O)CC#N)C[C@@H]1N(C)c1ncnc2[nH]ccc12: 103%
Cc1cn(-c2cc(NC(=O)c3ccc(C)c(Nc4nccc(-c5cccnc5)n4)c3)cc(C(F)(F)F)c2)cn1: 15.3%
O=C(NC(NC(=S)Nc1ccc(F)c([N+](=O)[O-])c1)C(Cl)(Cl)Cl)C(c1ccccc1)c1ccccc1 (stereo not shown): 104%
Cn1nc2c3c(cccc31)C(=O)c1ccccc1-2: 109%
CN(C)C[C@H]1CCn2c(c(C3=C(c4cn(C)c5ccccc45)C(=O)NC3=O)c3ccccc32)C1: 109%
CCN(CC)C(=O)c1ccc(Nc2nc(OCC3CCCCC3)c3[nH]cnc3n2)cc1: 85.5%
N#C/C(=C\c1ccc(O)c(O)c1)C(=O)NCc1ccccc1: 98.7%
Nc1cccc(-c2cc3c(Oc4cccc(O)c4)ncnc3[nH]2)c1: 108%
Ic1cccc(CSc2nnc(-c3ccncc3)o2)c1: 96.9%
CN([C@@H](Cc1ccc(OS(=O)(=O)c2cccc3cnccc23)cc1)C(=O)N1CCN(c2ccccc2)CC1)S(=O)(=O)c1cccc2cnccc12: 98.9%
CCN(CC)CCNC(=O)c1c(C)[nH]c(/C=C2\C(=O)Nc3ccc(Cl)cc32)c1C: 100%
COc1cc2ncnc(Nc3ccc(O)c(Br)c3)c2cc1OC: 90.1%
N#Cc1c(NC(=O)c2cccc3ccccc23)sc2c1CCCC2: 104%
COc1cc2c(cc1OC)-c1[nH]nc(Nc3cccc(F)c3)c1C2: 83%

A few entries again (study 1):
Tyrosine-protein kinase ZAP-70 (ZAP70, Homo sapiens, UniProt P43403): 72%
Dual specificity protein kinase CLK4 (CLK4, Homo sapiens, UniProt Q9HAZ1): 100%
Epidermal growth factor receptor (EGFR, Homo sapiens, UniProt P00533, L858R/T790M): 83%
Serine/threonine-protein kinase Nek9 (NEK9, Homo sapiens, UniProt Q8TD19): 83%
Cyclin-dependent kinase 3 (CDK3, Homo sapiens, UniProt Q00526): 73%
Tyrosine-protein kinase ABL1, phosphorylated (ABL1, Homo sapiens, UniProt P00519, Y253F): 72%
SRSF protein kinase 1 (SRPK1, Homo sapiens, UniProt Q96SB4): 90%
Serine/threonine-protein kinase RIO1 (RIOK1, Homo sapiens, UniProt Q9BRS2): 50%
Receptor tyrosine-protein kinase erbB-4 (ERBB4, Homo sapiens, UniProt Q15303): 100%
Hepatocyte growth factor receptor (MET, Homo sapiens, UniProt P08581, M1250T): 90%
